{"data": "Measured values pooled from the literature", "target": "Serine/threonine-protein kinase BRSK1 (BRSK1, Homo sapiens, UniProt Q8TDC3)", "note": "Protocols differ between the studies behind these lines."}
{"effect on": "enzyme activity", "action": "inhibitor", "concentration": "1 µM", "quantity": "inhibition", "value": "-2%", "Structure (SMILES)": "Cc1cccc(O[C@H]2CCC[C@@H](C(C)CNCc3ccncc3)C2)c1 (relative stereo)"}
{"effect on": "binding", "technique": "competition with immobilised ligand", "concentration": "1 µM", "quantity": "remaining binding", "value": "100%", "Structure (SMILES)": "Nc1ncc2c(n1)-c1c([nH]c3ccc(C4=CCOCC4)cc13)CCC2"}
{"effect on": "cell-free assay", "technique": "competition with immobilised ligand", "concentration": "1 µM", "quantity": "remaining binding", "value": "67%", "Structure (SMILES)": "Cc1ccc(-c2c(/C=C(\\C#N)C(=O)NC(C)C)n(CCCO)c3ncnc(N)c23)cc1"}
{"effect on": "binding", "technique": "competition with immobilised ligand", "concentration": "1 µM", "quantity": "remaining binding", "value": "100%", "Structure (SMILES)": "COc1cc(Nc2nccc(-c3cnn4nc(OC)ccc34)n2)cc(C(F)(F)F)c1"}
{"technique": "KinomeScan", "concentration": "0.1 µM", "reference": "untreated", "quantity": "remaining binding", "value": "100%", "Structure (SMILES)": "CNC1C[S+]2CC[S+]3CC[S+](C1)[Ru-4]321([N]=C=S)[n]2c3ccc(OC)cc3c3c4c(c5cc(F)c[n+]1c5c32)C(=O)NC4=O (stereo not drawn)"}
{"effect on": "enzyme activity", "action": "inhibitor", "concentration": "10 µM", "quantity": "inhibition", "value": "7%", "Structure (SMILES)": "NC(=O)[C@@H](O)C[C@H]1CCc2sc3ncnc(O[C@H]4CC[C@H](N5CCOCC5)CC4)c3c21"}
{"effect on": "enzyme activity", "action": "inhibitor", "concentration": "10 µM", "quantity": "activity vs control", "value": "133%", "Structure (SMILES)": "O=C(Cc1ccc(OCc2ccccc2)cc1)NC1(C(=O)O)CCN(C(=O)c2ccc(-c3cccc(Cl)c3)cc2)CC1"}
{"effect on": "cell-free assay", "technique": "competition with immobilised ligand", "concentration": "1 µM", "quantity": "remaining binding", "value": "100%", "Structure (SMILES)": "C=CC(=O)N1CCCC(n2c(=O)c3ncccc3n(Cc3ccc(Oc4ccccc4)cc3)c2=O)C1 (stereo not drawn)"}
{"effect on": "binding", "technique": "competition with immobilised ligand", "concentration": "3 µM", "quantity": "remaining binding", "value": "95%", "Structure (SMILES)": "COc1c(Cl)cccc1Nc1c(-c2ccncc2C#C[C@@]2(C)CCCN2C(=O)/C=C/CN(C)C)[nH]c2c1C(=O)NCC2"}
{"effect on": "enzyme activity", "action": "inhibitor", "concentration": "1 µM", "quantity": "activity vs control", "value": "100%", "Structure (SMILES)": "CNC(=O)C[C@H](Cc1ccc(C#N)cc1)NC(=O)c1cc(-c2ccc(CN[C@H](C)c3ccc(C)cc3)o2)ccc1Cl"}
{"technique": "KINOMEscan", "concentration": "1 µM", "reference": "DMSO control", "quantity": "remaining binding", "value": "84%", "Structure (SMILES)": "C=CC(=O)N1CCc2ccc(-n3c(=O)ccc4cnc5ccc(-c6cnn(C)c6)cc5c43)cc21"}
{"effect on": "enzyme activity", "action": "inhibitor", "concentration": "1 µM", "quantity": "inhibition", "value": "77%", "Structure (SMILES)": "Cc1nc2c(F)cc(-c3nc(Nc4ccc(CNC(=O)CCCCCCC(=O)NO)cc4)ncc3F)cc2n1C(C)C"}
{"effect on": "binding", "concentration": "0.1 µM", "quantity": "remaining binding", "value": "100%", "Structure (SMILES)": "Cc1cnc2nc1Nc1cccc(c1)COC/C=C/COCc1cc(ccc1OCCN1CCOCC1)N2"}
{"effect on": "enzyme activity", "action": "inhibitor", "concentration": "0.1 µM", "quantity": "inhibition", "value": "-8%", "Structure (SMILES)": "CN1CCN(Cc2ccc(-c3ccc(CO[C@H]4CCC[C@@H]4NC(=O)c4cc(-c5cnn(C)c5)cnc4N)cc3)cc2)CC1"}
{"effect on": "enzyme activity", "action": "inhibitor", "concentration": "0.1 µM", "quantity": "inhibition", "value": "13%", "Structure (SMILES)": "C=CC(=O)Nc1cccc(-c2cnc3[nH]cc(C(=O)NC(C)(C)C)c3n2)c1"}
